Experimental data of several laboratories.
Lines come from different studies, so protocols differ. Numbers after ± are the reported error.
Oprk1: Kappa-type opioid receptor (Oprk1, Rattus norvegicus, UniProt P34975)
Chain of UniProt P34975 (whole entry, looked up): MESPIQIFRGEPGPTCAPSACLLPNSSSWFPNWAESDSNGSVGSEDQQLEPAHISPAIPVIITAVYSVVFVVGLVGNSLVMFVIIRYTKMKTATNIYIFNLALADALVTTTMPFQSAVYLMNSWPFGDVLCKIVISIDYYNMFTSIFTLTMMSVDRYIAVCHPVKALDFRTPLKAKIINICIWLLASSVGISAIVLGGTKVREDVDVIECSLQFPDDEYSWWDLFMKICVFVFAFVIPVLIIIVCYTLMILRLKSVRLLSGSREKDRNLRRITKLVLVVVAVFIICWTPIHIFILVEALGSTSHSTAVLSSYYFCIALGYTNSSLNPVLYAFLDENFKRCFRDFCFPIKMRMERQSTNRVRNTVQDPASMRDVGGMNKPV
ampC: Beta-lactamase (ampC, Escherichia coli K-12, UniProt P00811)
Chain of UniProt P00811 (whole entry, looked up): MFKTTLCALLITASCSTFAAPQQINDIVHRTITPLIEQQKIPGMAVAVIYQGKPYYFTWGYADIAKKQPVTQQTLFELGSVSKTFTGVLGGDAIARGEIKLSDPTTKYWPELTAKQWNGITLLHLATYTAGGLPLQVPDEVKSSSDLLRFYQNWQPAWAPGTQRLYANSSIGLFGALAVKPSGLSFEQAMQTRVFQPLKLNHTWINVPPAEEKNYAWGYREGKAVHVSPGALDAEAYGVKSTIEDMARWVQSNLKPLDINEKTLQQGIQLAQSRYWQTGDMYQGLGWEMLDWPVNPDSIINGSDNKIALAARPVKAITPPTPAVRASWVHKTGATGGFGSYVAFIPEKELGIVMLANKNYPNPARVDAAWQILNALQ
Chain of UniProt O43741 (whole entry, looked up): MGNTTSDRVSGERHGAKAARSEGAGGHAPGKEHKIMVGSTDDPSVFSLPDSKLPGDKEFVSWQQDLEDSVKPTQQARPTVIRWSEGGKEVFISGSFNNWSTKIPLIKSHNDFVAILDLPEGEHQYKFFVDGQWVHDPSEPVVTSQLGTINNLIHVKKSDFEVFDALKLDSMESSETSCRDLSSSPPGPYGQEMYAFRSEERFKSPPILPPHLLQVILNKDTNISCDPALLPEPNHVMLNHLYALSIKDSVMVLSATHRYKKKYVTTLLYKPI
Chain of UniProt P21564 (whole entry, unmodified, looked up): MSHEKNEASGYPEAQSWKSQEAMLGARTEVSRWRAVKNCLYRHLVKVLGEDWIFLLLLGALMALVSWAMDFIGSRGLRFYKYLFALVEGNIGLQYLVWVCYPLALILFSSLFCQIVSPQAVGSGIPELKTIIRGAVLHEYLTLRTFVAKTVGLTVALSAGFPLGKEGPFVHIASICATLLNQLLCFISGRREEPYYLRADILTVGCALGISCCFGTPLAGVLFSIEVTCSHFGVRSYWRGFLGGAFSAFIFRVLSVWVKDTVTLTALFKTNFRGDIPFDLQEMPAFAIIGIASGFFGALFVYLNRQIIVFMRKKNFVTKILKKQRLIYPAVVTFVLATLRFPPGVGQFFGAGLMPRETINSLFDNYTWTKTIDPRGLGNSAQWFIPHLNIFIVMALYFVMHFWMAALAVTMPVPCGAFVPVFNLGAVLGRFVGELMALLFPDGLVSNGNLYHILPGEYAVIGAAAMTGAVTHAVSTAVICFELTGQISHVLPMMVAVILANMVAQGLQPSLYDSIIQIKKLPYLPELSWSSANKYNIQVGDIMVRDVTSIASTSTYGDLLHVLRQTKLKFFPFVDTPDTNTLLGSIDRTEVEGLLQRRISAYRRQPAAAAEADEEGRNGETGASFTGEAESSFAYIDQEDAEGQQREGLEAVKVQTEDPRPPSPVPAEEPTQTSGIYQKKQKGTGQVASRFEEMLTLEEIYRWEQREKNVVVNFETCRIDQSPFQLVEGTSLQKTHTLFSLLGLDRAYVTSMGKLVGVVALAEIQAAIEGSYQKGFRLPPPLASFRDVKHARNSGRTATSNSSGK
Chain of UniProt O42275 (whole entry, looked up): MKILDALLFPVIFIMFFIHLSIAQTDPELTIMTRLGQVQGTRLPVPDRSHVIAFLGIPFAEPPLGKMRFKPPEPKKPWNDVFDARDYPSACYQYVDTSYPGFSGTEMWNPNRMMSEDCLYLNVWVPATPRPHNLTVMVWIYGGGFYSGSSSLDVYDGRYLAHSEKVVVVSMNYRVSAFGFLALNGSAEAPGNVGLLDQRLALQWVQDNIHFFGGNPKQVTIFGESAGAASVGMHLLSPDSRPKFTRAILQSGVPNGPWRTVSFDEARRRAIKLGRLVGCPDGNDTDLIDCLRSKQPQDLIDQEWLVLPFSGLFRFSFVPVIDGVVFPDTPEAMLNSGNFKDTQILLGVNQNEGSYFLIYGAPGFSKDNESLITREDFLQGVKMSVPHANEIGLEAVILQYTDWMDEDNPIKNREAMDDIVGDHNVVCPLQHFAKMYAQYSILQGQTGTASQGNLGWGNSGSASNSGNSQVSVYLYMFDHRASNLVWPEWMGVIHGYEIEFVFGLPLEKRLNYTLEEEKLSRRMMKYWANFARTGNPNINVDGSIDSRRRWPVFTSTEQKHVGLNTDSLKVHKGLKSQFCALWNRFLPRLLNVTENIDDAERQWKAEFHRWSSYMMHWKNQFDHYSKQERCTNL
Chain of UniProt P54646 (whole entry, looked up): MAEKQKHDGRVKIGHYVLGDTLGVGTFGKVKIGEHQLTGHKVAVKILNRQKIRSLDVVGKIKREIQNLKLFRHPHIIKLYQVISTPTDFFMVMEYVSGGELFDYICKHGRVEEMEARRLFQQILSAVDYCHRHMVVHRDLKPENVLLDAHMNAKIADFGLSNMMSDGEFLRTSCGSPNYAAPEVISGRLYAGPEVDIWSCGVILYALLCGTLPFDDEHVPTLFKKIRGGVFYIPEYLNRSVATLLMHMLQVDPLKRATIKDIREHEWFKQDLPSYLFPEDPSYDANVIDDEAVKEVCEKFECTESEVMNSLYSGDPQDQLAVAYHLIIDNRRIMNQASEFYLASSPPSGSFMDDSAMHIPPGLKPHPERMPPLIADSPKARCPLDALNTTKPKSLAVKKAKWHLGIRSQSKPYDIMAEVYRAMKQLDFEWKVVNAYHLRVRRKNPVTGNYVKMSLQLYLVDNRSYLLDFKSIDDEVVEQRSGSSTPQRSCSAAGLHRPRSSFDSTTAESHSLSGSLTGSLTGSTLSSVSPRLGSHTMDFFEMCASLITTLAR
Chain of UniProt Q9Y478 (whole entry, looked up): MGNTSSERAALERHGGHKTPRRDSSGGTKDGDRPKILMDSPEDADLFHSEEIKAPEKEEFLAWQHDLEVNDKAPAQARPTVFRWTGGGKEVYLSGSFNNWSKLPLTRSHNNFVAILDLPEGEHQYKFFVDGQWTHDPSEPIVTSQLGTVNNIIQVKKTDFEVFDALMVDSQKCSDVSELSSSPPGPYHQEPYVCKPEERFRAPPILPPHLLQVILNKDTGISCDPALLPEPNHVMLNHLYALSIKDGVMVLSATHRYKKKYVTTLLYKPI
Chain of UniProt P20309 (whole entry, looked up): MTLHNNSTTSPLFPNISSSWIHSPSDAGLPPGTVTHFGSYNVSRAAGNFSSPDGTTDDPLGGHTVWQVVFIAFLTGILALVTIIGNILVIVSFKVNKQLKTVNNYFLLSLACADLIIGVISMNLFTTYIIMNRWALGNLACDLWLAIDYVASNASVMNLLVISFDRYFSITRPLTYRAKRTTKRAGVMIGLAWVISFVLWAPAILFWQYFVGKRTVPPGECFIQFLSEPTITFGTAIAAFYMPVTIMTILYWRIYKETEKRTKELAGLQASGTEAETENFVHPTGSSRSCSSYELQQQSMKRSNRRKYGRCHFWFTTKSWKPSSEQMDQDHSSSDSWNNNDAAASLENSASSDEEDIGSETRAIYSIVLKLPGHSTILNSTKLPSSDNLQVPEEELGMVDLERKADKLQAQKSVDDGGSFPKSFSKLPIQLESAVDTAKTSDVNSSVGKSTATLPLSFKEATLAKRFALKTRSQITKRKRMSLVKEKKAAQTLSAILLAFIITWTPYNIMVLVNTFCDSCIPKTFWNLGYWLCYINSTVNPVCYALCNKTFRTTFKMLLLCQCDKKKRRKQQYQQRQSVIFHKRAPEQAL
Chain of UniProt Q12908 (whole entry, looked up): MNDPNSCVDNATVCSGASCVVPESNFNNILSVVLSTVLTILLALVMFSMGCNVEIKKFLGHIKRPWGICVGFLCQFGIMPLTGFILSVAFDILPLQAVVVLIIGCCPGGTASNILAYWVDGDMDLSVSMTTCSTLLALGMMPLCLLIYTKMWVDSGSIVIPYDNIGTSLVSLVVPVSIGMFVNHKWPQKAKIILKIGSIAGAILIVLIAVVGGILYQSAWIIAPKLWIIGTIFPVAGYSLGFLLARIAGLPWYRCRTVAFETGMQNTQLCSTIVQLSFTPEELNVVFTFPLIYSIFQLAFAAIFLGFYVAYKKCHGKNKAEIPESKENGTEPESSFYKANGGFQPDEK
Chain of UniProt Q99615 (whole entry, looked up): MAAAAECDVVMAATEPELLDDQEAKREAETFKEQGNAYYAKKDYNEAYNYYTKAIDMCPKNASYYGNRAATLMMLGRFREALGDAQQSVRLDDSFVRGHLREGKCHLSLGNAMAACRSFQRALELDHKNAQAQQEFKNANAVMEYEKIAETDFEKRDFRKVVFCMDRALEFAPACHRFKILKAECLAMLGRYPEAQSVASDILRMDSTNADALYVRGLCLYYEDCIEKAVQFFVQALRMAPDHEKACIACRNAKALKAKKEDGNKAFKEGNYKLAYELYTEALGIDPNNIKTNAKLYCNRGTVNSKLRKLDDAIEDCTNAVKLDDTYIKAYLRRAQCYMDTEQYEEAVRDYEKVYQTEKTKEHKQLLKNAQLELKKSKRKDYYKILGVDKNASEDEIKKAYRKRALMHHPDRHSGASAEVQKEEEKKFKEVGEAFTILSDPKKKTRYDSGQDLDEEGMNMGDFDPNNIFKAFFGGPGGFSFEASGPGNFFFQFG
Chain of UniProt P69905 (whole entry, looked up): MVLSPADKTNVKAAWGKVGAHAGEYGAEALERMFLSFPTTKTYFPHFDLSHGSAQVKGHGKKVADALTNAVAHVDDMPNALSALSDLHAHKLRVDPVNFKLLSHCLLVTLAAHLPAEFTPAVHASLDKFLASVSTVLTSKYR

Structure (SMILES)	target	assay	test system	setting	how to read	endpoint	value
Cc1cc(O)cc(C)c1C[C@@H]1NC(=O)[C@H](CCCCN)NC(=O)[C@H](Cc2ccccc2)NC(=O)[C@@H](CCCCNC(=N)N)NC1=O	mu opioid receptor, guinea pig	antagonist	guinea pig ileum	–	–	Ke	5.16 ± 1.24 nM
CSCC[C@H](NC(=O)[C@H](CCCNC(=N)N)NC(=O)[C@H](CO)NC(=O)[C@@H](NC(=O)[C@H](CC(=O)O)NC(=O)[C@H](CC(=O)O)NC(=O)CCCCCNC(=O)c1ccc2c(c1)C(=O)OC21c2ccc(O)cc2Oc2cc(O)ccc21)[C@@H](C)O)C(=O)N[C@@H](CCC(=O)O)C(=O)N[C@@H](CCCCN)C(=O)N[C@H](C(=O)N[C@@H](CC(=O)O)C(=O)O)C(C)C	DnaJ homolog subfamily C member 7 (Homo sapiens, UniProt Q99615)	fluorescence polarization	–	pH 7.4	reference: wild-type tracer	affinity decrease	≥ 3 fold
CC[C@H](C)[C@H](NC(=O)[C@H](CCC(N)=O)NC(=O)[C@H](CC(C)C)NC(=O)[C@@H](NC(=O)CNC(=O)[C@H](Cc1ccc(O)cc1)NC(=O)[C@H](CC(=O)O)NC(=O)[C@@H](NC(=O)[C@H](CO)NC(=O)CNC(=O)[C@H](CC(=O)O)NC(=O)[C@@H](NC(=O)[C@H](CC(N)=O)NC(=O)[C@H](CCCNC(=N)N)NC(=O)[C@H](CC(N)=O)NC(=O)[C@@H](NC(=O)[C@H](C)NC(=O)[C@H](CCC(N)=O)NC(=O)[C@@H](NC(=O)[C@H](CC(N)=O)NC(=O)[C@H](Cc1ccccc1)NC(=O)[C@H](CC(N)=O)NC(=O)[C@H](CO)NC(=O)[C@H](CCC(=O)O)NC(=O)[C@H](Cc1ccccc1)NC(=O)[C@H](CCCCN)NC(=O)[C@H](C)NC(=O)[C@H](C)NC(=O)[C@H](CO)NC(=O)[C@@H](NC(=O)[C@H](Cc1c[nH]c2ccccc12)NC(=O)[C@H](CC(N)=O)NC(=O)CNC(=O)[C@H](CC(C)C)NC(=O)[C@H](CO)NC(=O)[C@H](Cc1ccc(O)cc1)NC(=O)CNC(=O)[C@H](CCCNC(=N)N)NC(=O)[C@H](Cc1ccc(O)cc1)NC(=O)[C@H](CC(N)=O)NC(=O)[C@@H](N)CC(=O)O)C(C)C)[C@@H](C)O)[C@@H](C)O)[C@@H](C)O)[C@@H](C)O)[C@@H](C)CC)C(=O)O	Periplasmic serine endoprotease DegP (degP, Escherichia coli, UniProt P0C0V0)	reporter cleavage, activator	–	with: protease 1 µM, reporter 100 µM	–	concentration for maximal activation	2 to 5 µM
CC(C)[C@H]1CC[C@@H](N2CC[C@@](C)(c3cccc(O)c3)[C@@H](C)C2)CC1	OPRM1 (Homo sapiens, UniProt P35372)	agonist	–	–	–	efficacy	0%
COC(=O)C1C(OC(c2ccc(Cl)cc2)c2ccc(Cl)cc2)CC2CCC1N2C (single isomer, unassigned)	rat L-type calcium channel	binding, radioligand displacement	rat cortex	dihydropyridine site, inactive if below 75% at 10000 nM, with: [3H]nitrendipine	–	Ki	inactive
COc1ccc2cc1Oc1ccc(cc1)C[C@H]1c3cc(c(OC)cc3CC[N+]1(C)Cc1ccc3ccccc3c1)Oc1c(OC)c(OC)cc3c1[C@H](C2)[N+](C)(Cc1ccc2ccccc2c1)CC3 (mixture of isomers)	poly(dA)·poly(dT) 18-bp dsDNA	DNA binding, ethidium bromide displacement	phosphate buffer, 10% DMSO	pH 7.2, 25 °C, dsDNA 10 µM, 10 mM NaCl, with: ethidium bromide 5 µM	–	Stern-Volmer constant	14500 M⁻¹
C[C@H](NC(=O)[C@@H]1CNC(=O)C[C@@H](NC(=O)[C@H](Cc2ccccc2)NC(=O)CNC(=O)CNC(=O)[C@H](Cc2ccc(O)cc2)NCc2ccccc2)C(=O)N[C@@H](CCCNC(=N)N)C(=O)N[C@@H](CCCNC(=N)N)C(=O)N1)C(=O)N1CCC[C@H]1C(=O)N[C@@H](CCCCN)C(N)=O	Oprk1	binding	–	–	reference: zyklophin	affinity fold decrease	≤ 2 fold
CC(C)C[C@H](NC(=O)[C@H](CCCNC(=N)N)NC(=O)[C@H](Cc1c[nH]c2ccccc12)NC(=O)[C@H](Cc1ccccc1)NC(=O)[C@H](Cc1ccccc1)N(C)C(=O)COc1ccccc1)C(=O)N[C@@H](CCCNC(=N)N)C(=O)N[C@@H](CCCNC(=N)N)C(=O)N[C@H](C)C(=O)N[C@@H](CCCNC(=N)N)C(=O)N1CCC[C@H]1C(=O)N[C@@H](CCCCN)C(N)=O	Oprk1	agonist	CHO cells	10 µM	reference: dynorphin A(1-13) amide	adenylyl cyclase activity	> 90%
CCN(Cc1ccccc1)C(=O)CCc1nc(CN2CCN(C(=O)Cc3ccc(OC)c(OC)c3)CC2)no1	Scn10a (Rattus norvegicus, UniProt Q62968)	whole-cell patch clamp	rat DRG neurons	3 µM	–	V1/2 of activation	-20.2 ± 1.32 mV
OB(O)c1cnn(-c2cccc(Cl)c2)c1	ampC	–	–	–	–	ligand efficiency	0.66
Cc1cc(C)nc(Sc2nc3sccn3c2[N+](=O)[O-])n1	Genome polyprotein, 3C protease (rhinovirus B14, UniProt P03303)	protease activity, SAMDI-MS	–	–	–	Hill slope	1.31
Cc1ccc(Oc2nc3cc(-c4ccc5c(ccn5C)c4)c(Cl)cc3[nH]2)cc1C(=O)O	PRKAA1/PRKAB1, phosphorylated; with gamma1 (Homo sapiens, UniProt Q13131+Q9Y478)	binding, biolayer interferometry	–	α1β1γ1 complex	–	kon	103000 ± 8000 M⁻¹ s⁻¹
C=Cc1cc(OC)c2c(c1)c(=O)oc1c2cc(OC)c2c(O)ccc([C@@H]3O[C@H](C)[C@H](O)[C@@](C)(O)[C@H]3O)c21	2,3,4,5-tetrahydropyridine-2,6-dicarboxylate N-acetyltransferase (dapH, Staphylococcus aureus, UniProt A6QGU8, A219Q)	binding, microscale thermophoresis	–	–	reference: A219Q mutant over wild type	Kd fold increase	14.2 fold
COc1cc(C=O)ccc1OCc1cccc(CO)n1	Hemoglobin subunit alpha, with beta chain (HBA1, Homo sapiens, UniProt P69905)	binding	–	low concentration	–	time to equilibrium	12 to 20 h
CC1CN1c1cc(O)c2nc(N)sc2c1 (stereo not shown)	Histone-lysine N-methyltransferase NSD3, SET domain (NSD3, Homo sapiens, UniProt Q9BZ95)	mass spectrometry	NSD3 SET domain 1 µM	10 µM, 8 h, 32 °C	–	covalent engagement	14%
CS(C)(=O)=Nc1ccc(-c2ccc(-c3nc4cc(O[C@@H]5CO[C@H]6[C@@H]5OC[C@H]6O)[nH]c4cc3F)cc2)cc1	PRKAB2/PRKAA2, with gamma3 subunit (Homo sapiens, UniProt O43741+P54646)	enzyme activity, activator	–	60 min, 50% above basal activity, with: ATP 50 µM	–	EC150	0.404 nM
O=C(O)COc1ccc(Cl)cc1	Chloride channel protein (Torpedo marmorata, UniProt P21564, C212S)	single-channel current, noise analysis	–	20 mM, -80 mV	–	lower corner frequency	2.3 Hz
CC(C(=O)O)N(c1ccccc1)S(C)(=O)=O (stereo not shown)	ampC	–	–	–	–	ligand efficiency	0.24
CC(CCC(=O)NC(CCC(=O)Nc1cccnc1)C(=O)O)C1CCC2C3C(O)CC4CC(O)CCC4(C)C3CCC12C (stereo not shown)	SLC10A2 (Homo sapiens, UniProt Q12908)	transport, substrate, LC-MS/MS	ASBT-MDCK cells	–	–	Kt	1.06 µM
CCN1CCCC1CNC(=O)c1cc(Br)cc(OC)c1O[11CH3] (stereo not shown)	dopamine D2/D3 receptor	binding, multiple-injection PET	rhesus monkey, substantia nigra	–	–	Bmax	3.3 nmol/L
Clc1ccc2c(c1)N=C(N1CCNCC1)c1ccccc1N2	CHRM3 (Homo sapiens, UniProt P20309)	calcium flux, agonist, FLIPR	–	–	reference: acetylcholine	Emax	86%
c1ccc2c(Nc3c4c(nc5ccccc35)CCCC4)cccc2c1	ache (Electrophorus electricus, UniProt O42275)	enzyme activity, inhibitor, Ellman	–	50 µM	–	inhibition	56.9%

Some of these lines once more:
Structure (SMILES)	target	assay	test system	setting	how to read	endpoint	value
COC(=O)C1C(OC(c2ccc(Cl)cc2)c2ccc(Cl)cc2)CC2CCC1N2C (single isomer, unassigned)	rat L-type calcium channel	binding, radioligand displacement	rat cortex	dihydropyridine site, inactive if below 75% at 10000 nM, with: [3H]nitrendipine	–	Ki	inactive
